Published values of several laboratories.
Compare with care: the assays were run in different laboratories. ± marks the error that the study gave.
Organism: Plasmodium falciparum

Compound	assay	test system	conditions	how to read	quantity	result
CCONC(=O)N1CCC[C@H](C(=O)N[C@H](C)c2nc(-c3ccc(C#N)cc3)cs2)C1	SYBR Green growth	asexual blood-stage parasites, 3D7	72 h		EC50	43 ± 4.6 nM
CCN(CC)CCCC(C)Nc1ccnc2cc(Cl)ccc12 (stereo not drawn)	Giemsa-stained smears	red blood cells, 3D7 Hyp1-Nluc	10 × EC50, 8 h		extracellular parasites	3.5%
Cc1cc(Nc2ccc(S(F)(F)(F)(F)F)cc2)n2nc(C(C)(F)F)nc2n1	microscopy	P. falciparum malaria patients	oral, 400 mg		PC50 parasite clearance time median	14.6 h
CNS(=O)(=O)c1ccccc1Nc1nc(Nc2ccc(N3CCOCC3)cc2OC)ncc1Br	LDH readout	3D7 Hyp1-Nluc	20 µM, 72 h	baseline: DMSO	parasite growth	1.84%
O=[N+]([O-])c1ccc(Nc2ccnc3ccc(-c4ccc(S(=O)(=O)N5CCOCC5)cc4)cc23)cn1	parasite growth, SYBR Green	D6			EC50	390 nM
Cn1cc(-c2cnc3[nH]cc(-c4cn(Cc5cccc(F)c5F)nn4)c3c2)cn1	LDH readout	3D7 Hyp1-Nluc	20 µM, 72 h	baseline: DMSO	parasite growth	7.38%
O=S(=O)(c1ccc(-c2ccc3nccc(Nc4cccnc4)c3c2)cc1)N1CCOCC1	parasite growth, SYBR Green	TM91C235			EC50	730 nM
Cc1[nH]c(/C=C2\N=C(c3ccc[nH]3)C3=C2OCCO3)cc1Cc1ccc(OC(F)(F)F)cc1	parasite growth, SYBR Green fluorescence	Tm90-C2B (atovaquone-resistant), asexual blood stage	72 h		IC50	24.8 nM
COc1cc(C(=O)N(C)C)ccc1-c1cc2nccc(-c3ccc4ccncc4c3)c2o1	schizont egress, Nluc release	Hyp1-Nluc	10 x growth EC50, 4 h		inhibition	79.3%
CCOC1=CC(c2ccc[nH]2)=N/C1=C\c1cc(Cc2ccc(Cl)cc2)c(C)[nH]1	parasite growth, SYBR Green fluorescence	Dd2 (multidrug-resistant), asexual blood stage	72 h		IC50	4.12 nM
COc1ccc(CNc2nc(-c3ccc(C(=O)O)nc3)nc3sc4c(c23)CCCC4)cc1Cl	nanoluciferase readout	3D7 Hyp1-Nluc	2 µM, 72 h	baseline: DMSO	parasite growth	25.3%
Cc1noc(C)c1Nc1ccnc2ccc(-c3ccc(S(=O)(=O)N4CCOCC4)cc3)cc12	parasite growth, SYBR Green	TM91C235			EC50	> 20000 nM
CCc1nc(N)nc(N)c1-c1ccc(Cl)cc1	parasite reduction ratio	3D7	concentration not given, linear phase after lag		killing curve slope	-0.072
O=S(=O)(c1ccc(-c2ccc3nccc(Nc4ccncn4)c3c2)cc1)N1CCOCC1	parasite growth, SYBR Green	W2			EC50	> 20000 nM
COCC(=O)N1CCC(C(=O)NCc2nc(-c3ccccc3)cs2)CC1	SYBR Green growth	asexual blood-stage parasites, 3D7	72 h		EC50	> 5000 nM
CC(C)(C)NC(=O)[C@@H]1CN(Cc2cnc3occc3c2)CCN1C[C@@H](O)C[C@@H](Cc1ccccc1)C(=O)N[C@H]1c2ccccc2C[C@H]1O	parasite growth, stage-specific treatment		12 h, early to late trophozoite stage		IC50	> 10000 nM
CCONC(=O)N1CCC[C@H](C(=O)NCc2nc(-c3ccccc3)cs2)C1	SYBR Green growth	asexual blood-stage parasites, 3D7	72 h		EC50	51 ± 11 nM
Cc1nnc(-c2ccc3ccn(CC(=O)Nc4ccccc4Cl)c3c2)o1	Giemsa-stained smears	red blood cells, 3D7 Hyp1-Nluc	10 × EC50, 8 h		extracellular parasites	8%

Compound	assay	test system	conditions	how to read	quantity	result
COc1ccc(OCCCO)cc1-c1cn2cc(-c3nnc(NCCCCc4ccccc4)o3)ccc2n1	LDH readout	3D7 Hyp1-Nluc	20 µM, 72 h	baseline: DMSO	parasite growth	5.19%
Cc1[nH]c(/C=C2\N=C(c3ccc[nH]3)C=C2OC(C)C)cc1Cc1ccc(Cl)cc1	parasite growth, SYBR Green fluorescence	Dd2 (multidrug-resistant), asexual blood stage	72 h		IC50	7.11 nM
COCC(=O)N1CC[C@H](C(=O)NCc2nc(-c3ccccc3)cs2)C1	SYBR Green growth	asexual blood-stage parasites, 3D7	72 h		EC50	> 5000 nM
O=C(CCCCCONC(=O)c1nc(-c2ccccn2)cs1)NO		3D7		baseline: NFF cells over P. falciparum	selectivity ratio	5
CCOCCOc1ccnc2ccc(-c3ccc(S(=O)(=O)N4CCOCC4)cc3)cc12	parasite growth, SYBR Green	W2			EC50	5100 nM
CC1=C(Cc2cn(CCOS(=O)(=O)c3ccc(C)cc3)nn2)C(=O)c2ccccc2C1=O		NF54		baseline: L6 CC50 over IC50	selectivity index	57.7
CCOCC(=O)N1CCC[C@H](C(=O)NCc2nc(-c3ccc(C)nc3)cs2)[C@@H]1C	parasite growth, SYBR Green	3D7, asexual blood stage	72 h		EC50	9.3 ± 2.9 nM
CC/N=C(\c1ccc(OC)c(OC)c1)N1CCCc2cc(C3=NNC(=O)SC3C)ccc21 (stereo not drawn)	LDH readout	3D7 Hyp1-Nluc	20 µM, 72 h	baseline: DMSO	parasite growth	-4.04%
N#Cc1ccc(-c2csc(CNC(=O)[C@H]3CCCN(C(=O)COC4CC4)C3)n2)cc1	SYBR Green growth	asexual blood-stage parasites, 3D7	72 h		EC50	7.7 ± 0.81 nM
O=S(=O)(c1ccc(-c2ccc3nccc(Nc4ccncc4)c3c2)cc1)N1CCOCC1	parasite growth, SYBR Green	D6			EC50	270 nM
O=C1C(O)=C([C@H]2CC[C@H](c3ccc(Cl)cc3)CC2)C(=O)c2ccccc21	parasite growth	Tm90-C2B, multidrug-resistant	72 h		IC50	> 2500 nM
COCC(=O)N1CCC[C@H](C(=O)Nc2nc(-c3ccccc3)cs2)C1	SYBR Green growth	asexual blood-stage parasites, 3D7	72 h		EC50	> 5000 nM
Cc1cc(Nc2ccc(S(F)(F)(F)(F)F)cc2)n2nc(C(C)(F)F)nc2n1	parasite growth				EC50	9.5 nM
CNS(=O)(=O)c1ccccc1Nc1nc(Nc2cc(OC)c(OC)cc2C)ncc1Br	LDH readout	3D7 Hyp1-Nluc	20 µM, 72 h	baseline: DMSO	parasite growth	10.8%
CCc1nnc(Nc2ccnc3ccc(-c4ccc(S(=O)(=O)N5CCOCC5)cc4)cc23)s1	parasite growth, SYBR Green	W2			EC50	1900 nM
COc1cc(OC)c(CCNC(=O)c2cn3cc(-c4cc(OCC(=O)O)ccc4OC)nc3s2)c(OC)c1	nanoluciferase readout	3D7 Hyp1-Nluc	2 µM, 72 h	baseline: DMSO	parasite growth	48.7%
O=S(=O)(c1ccc(-c2ccc3nccc(Nc4ccnnc4)c3c2)cc1)N1CCOCC1	parasite growth, SYBR Green	W2			EC50	17000 nM
O=C(CC1NCCCC1O)Cn1cnc2cc(Br)c(Cl)cc2c1=O (stereo not drawn)	parasite growth	cPRS conditional knockdown line	72 h, added: 3 nM anhydrotetracycline		IC50	0.04 nM
